Assay results of several laboratories.
Compare with care: the assays were run in different laboratories. Numbers after ± are the reported error.
Oprk1: Kappa-type opioid receptor (Oprk1, Rattus norvegicus, UniProt P34975)
UniProt P34975, sequence (whole entry, looked up): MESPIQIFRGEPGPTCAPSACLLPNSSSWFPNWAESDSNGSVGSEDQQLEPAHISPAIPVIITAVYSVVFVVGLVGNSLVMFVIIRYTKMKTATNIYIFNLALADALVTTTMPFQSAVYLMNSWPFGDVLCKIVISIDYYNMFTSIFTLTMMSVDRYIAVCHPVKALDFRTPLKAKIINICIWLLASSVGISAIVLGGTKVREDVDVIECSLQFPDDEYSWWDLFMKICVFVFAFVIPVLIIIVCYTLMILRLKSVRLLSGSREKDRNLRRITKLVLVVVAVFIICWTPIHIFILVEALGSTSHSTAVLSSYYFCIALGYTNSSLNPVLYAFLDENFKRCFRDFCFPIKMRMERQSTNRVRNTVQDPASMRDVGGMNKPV
ampC: Beta-lactamase (ampC, Escherichia coli K-12, UniProt P00811)
UniProt P00811, sequence (whole entry, looked up): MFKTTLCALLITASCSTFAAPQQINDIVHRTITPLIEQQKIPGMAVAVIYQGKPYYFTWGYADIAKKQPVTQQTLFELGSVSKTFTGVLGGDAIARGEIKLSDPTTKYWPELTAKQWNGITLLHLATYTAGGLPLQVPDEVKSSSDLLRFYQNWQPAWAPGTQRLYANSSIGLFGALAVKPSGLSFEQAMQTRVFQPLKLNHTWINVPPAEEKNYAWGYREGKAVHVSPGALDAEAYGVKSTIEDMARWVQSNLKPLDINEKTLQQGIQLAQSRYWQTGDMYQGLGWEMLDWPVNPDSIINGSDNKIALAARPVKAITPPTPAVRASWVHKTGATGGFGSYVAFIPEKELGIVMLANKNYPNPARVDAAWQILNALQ
ache: Acetylcholinesterase (ache, Electrophorus electricus, UniProt O42275)
UniProt O42275, sequence (whole entry, looked up): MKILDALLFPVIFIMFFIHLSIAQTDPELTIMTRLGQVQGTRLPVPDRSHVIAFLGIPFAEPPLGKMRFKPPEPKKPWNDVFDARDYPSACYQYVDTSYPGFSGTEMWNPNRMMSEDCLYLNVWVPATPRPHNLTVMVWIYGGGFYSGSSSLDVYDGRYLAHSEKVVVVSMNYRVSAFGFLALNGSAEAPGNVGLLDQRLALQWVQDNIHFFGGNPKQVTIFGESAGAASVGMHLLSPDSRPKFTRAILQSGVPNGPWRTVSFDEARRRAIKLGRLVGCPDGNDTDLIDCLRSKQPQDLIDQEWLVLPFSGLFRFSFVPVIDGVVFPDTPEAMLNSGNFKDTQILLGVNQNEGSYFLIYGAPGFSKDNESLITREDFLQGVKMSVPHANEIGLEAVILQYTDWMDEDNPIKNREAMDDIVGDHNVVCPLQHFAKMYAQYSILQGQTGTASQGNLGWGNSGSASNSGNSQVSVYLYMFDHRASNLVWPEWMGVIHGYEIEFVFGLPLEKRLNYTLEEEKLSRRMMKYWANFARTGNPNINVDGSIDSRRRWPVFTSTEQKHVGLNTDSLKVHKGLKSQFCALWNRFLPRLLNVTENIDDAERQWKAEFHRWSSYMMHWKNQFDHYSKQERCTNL
UniProt P0C0V0, sequence (whole entry, unmodified, looked up): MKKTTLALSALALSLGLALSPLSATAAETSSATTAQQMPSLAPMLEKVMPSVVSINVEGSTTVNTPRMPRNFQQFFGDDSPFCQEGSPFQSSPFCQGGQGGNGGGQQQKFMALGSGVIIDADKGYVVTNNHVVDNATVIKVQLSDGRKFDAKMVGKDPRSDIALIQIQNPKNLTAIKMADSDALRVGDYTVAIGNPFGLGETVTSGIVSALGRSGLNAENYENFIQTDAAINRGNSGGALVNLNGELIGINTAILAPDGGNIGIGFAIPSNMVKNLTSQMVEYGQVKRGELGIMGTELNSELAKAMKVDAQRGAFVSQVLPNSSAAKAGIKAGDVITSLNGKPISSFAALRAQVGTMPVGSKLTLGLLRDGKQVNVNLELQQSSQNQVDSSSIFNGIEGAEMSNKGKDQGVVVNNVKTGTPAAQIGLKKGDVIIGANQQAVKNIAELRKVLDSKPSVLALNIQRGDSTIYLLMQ
UniProt Q09472, sequence (whole entry, unmodified, looked up): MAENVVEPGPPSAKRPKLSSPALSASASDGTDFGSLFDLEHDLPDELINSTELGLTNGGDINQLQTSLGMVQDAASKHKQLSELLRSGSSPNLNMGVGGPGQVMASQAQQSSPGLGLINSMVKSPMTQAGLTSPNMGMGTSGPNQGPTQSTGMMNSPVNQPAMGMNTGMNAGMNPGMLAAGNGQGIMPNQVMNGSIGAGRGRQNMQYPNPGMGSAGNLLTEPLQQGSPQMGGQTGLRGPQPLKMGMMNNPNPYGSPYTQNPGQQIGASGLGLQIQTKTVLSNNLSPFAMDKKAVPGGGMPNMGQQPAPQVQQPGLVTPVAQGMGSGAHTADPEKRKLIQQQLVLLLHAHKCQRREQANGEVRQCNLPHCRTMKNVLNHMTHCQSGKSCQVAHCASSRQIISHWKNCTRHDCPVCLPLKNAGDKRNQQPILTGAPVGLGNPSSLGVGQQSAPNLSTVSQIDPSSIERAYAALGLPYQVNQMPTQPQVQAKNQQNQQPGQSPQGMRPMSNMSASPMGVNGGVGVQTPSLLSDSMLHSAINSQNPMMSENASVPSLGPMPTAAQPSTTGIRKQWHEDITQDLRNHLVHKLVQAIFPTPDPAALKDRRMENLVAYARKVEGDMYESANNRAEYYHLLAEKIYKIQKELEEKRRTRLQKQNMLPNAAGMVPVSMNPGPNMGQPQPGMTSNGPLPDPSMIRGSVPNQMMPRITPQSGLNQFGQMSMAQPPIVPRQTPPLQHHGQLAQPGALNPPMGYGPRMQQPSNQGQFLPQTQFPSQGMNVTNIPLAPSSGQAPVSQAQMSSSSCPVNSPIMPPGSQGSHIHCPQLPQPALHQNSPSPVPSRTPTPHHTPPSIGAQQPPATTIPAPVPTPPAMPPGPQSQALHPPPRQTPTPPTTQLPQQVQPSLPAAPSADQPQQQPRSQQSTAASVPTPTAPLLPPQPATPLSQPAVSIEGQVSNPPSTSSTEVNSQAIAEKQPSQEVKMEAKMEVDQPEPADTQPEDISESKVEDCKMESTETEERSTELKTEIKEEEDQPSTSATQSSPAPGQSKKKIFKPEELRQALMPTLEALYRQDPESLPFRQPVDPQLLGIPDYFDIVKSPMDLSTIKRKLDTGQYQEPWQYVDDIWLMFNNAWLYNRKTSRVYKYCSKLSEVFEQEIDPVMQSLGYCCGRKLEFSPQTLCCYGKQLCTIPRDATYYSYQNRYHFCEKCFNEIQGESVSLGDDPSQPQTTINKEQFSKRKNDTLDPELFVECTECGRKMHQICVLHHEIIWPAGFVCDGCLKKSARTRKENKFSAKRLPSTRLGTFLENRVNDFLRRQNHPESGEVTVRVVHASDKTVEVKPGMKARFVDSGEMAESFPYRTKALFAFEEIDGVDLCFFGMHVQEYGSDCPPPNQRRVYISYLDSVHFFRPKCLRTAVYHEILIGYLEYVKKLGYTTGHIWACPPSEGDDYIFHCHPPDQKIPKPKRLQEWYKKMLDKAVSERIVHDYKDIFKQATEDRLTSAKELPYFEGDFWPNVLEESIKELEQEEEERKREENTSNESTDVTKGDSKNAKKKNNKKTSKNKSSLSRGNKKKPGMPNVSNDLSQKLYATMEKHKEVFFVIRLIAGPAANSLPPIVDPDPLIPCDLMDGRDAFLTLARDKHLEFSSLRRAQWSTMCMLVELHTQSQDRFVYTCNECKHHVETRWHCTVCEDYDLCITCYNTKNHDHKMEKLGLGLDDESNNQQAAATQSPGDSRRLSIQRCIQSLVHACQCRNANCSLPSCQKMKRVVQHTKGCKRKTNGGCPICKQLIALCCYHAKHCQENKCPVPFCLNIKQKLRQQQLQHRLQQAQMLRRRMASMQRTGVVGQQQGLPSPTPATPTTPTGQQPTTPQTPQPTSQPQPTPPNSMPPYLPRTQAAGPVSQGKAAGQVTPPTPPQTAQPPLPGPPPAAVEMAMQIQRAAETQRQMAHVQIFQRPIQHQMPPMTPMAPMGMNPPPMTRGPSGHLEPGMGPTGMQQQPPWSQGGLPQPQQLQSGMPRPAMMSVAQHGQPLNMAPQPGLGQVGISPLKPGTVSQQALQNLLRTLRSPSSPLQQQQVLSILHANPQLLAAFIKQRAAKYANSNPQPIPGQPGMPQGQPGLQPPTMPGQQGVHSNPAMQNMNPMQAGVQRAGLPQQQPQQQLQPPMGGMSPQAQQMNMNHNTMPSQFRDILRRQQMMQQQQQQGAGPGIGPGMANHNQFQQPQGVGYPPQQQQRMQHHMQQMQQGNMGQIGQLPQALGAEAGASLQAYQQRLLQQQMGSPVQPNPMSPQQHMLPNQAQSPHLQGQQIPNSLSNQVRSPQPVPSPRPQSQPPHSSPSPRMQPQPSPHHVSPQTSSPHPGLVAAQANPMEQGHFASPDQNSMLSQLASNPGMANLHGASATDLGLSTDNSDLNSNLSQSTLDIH
UniProt Q9UKS7, sequence (whole entry, looked up): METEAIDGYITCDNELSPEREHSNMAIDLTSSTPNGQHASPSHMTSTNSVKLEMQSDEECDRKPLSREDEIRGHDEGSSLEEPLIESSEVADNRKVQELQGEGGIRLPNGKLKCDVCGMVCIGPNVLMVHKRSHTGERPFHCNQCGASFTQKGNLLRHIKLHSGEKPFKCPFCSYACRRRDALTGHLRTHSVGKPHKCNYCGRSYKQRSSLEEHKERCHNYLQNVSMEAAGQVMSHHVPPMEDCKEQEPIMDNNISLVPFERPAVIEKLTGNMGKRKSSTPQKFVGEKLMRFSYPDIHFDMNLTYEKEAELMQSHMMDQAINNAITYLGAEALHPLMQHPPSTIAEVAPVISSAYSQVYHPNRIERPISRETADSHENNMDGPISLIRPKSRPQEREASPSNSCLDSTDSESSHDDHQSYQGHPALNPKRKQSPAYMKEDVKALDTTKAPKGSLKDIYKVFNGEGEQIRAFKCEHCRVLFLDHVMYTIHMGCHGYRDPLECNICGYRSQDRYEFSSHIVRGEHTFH
UniProt O43741, sequence (whole entry, looked up): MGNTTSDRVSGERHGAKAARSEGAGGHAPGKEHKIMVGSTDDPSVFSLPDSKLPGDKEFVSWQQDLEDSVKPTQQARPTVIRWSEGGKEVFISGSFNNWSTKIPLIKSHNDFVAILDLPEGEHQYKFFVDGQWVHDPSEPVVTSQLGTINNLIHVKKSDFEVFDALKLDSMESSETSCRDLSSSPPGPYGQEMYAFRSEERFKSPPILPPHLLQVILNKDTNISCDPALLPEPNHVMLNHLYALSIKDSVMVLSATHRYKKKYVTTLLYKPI

SMILES	target	assay	test system	conditions	how to read	endpoint	value
C[C@@H](NC(=O)[C@H](Cc1ccccc1)NC(=O)[C@@H](CCCNC(=N)N)NC(=O)[C@H](CCCN)NC(=O)[C@@H]1CNC(=O)c2cc3cc(c2)C(=O)N[C@H](Cc2ccc4ccccc4c2)C(=O)N[C@@H](CO)C(=O)N[C@@H](CC(N)=O)C(=O)N[C@H](Cc2ccc4ccccc4c2)C(=O)N[C@@H](c2ccccc2)C(=O)N[C@@H](CCCCNC3=O)C(=O)N[C@H](Cc2ccccc2)C(=O)N[C@@H](CCC(N)=O)C(=O)N[C@H](CCCNC(=N)N)C(=O)N[C@@H](CCCNC(=N)N)C(=O)N1)C(=O)NCCOCCOCC(=O)NCCOCCOCC(=O)N[C@@H](CCCCNC(=O)c1ccc2c(c1)C(=O)OC21c2ccc(O)cc2Oc2cc(O)ccc21)C(N)=O	Tyrosine-protein phosphatase non-receptor type 1 (PTPN1, Homo sapiens, UniProt P18031)	fluorescence polarization		concentration not given		binding	no binding
N=C(N)NCCC[C@@H]1NC(=O)[C@H](CCCNC(=N)N)NC(=O)[C@H](NC(=O)[C@H](Cc2ccccc2)NC(=O)CNC(=O)CNC(=O)[C@H](Cc2ccc(O)cc2)NCc2ccccc2)CC(=O)NCC[C@@H](C(=O)N[C@@H](CCCNC(=N)N)C(=O)N2CCC[C@H]2C(=O)N[C@@H](CCCCN)C(N)=O)NC1=O	Oprk1	binding			reference: zyklophin	relative affinity	0.24
Cn1cc(-c2cccc(CN3CCC4(CC3)COc3c4ccc4c3CN([C@H]3CCC(=O)NC3=O)C4=O)c2)cn1	CRBN/Zinc finger protein Helios (Homo sapiens, UniProt Q96SW2+Q9UKS7)	degrader, flow cytometry	Jurkat			Dmax	65%
CC(=O)NC(Cc1ccc(Br)c(Cl)c1)C(=O)N[C@@H](C)C(=O)N1CCC[C@H]1C(=O)N1CCC[C@H]1C(=O)N[C@@H](CCC(=O)O)C(=O)N[C@@H](Cc1c[nH]cn1)C(=O)N[C@@H](CO)C(=O)N[C@H](C(=O)N[C@@H](C)C(N)=O)[C@@H](C)OP(=O)(O)O (stereo partly shown)	Testis-specific serine/threonine-protein kinase 1 (TSSK1B, Homo sapiens, UniProt Q9BXA7)	enzyme activity, inhibitor		10 µM		inhibition	0.18%
CCc1ccc(/C=C/C(=O)c2ccc(N3CCNCC3)cc2)cc1	Beta-secretase 1 (BACE1, Homo sapiens, UniProt P56817)	enzyme activity, inhibitor, fluorescence		10 µM		remaining activity	61%
CC(C)P(=S)(NP(=S)(C(C)C)C(C)C)C(C)C	Alpha-amylase (Bacillus subtilis, UniProt P00691)	binding, FRET		298 K		donor–acceptor distance	2.38 nm
CS(C)(=O)=Nc1ccc(-c2ccc(-c3nc4cc(O[C@@H]5CO[C@H]6[C@@H]5OC[C@H]6O)[nH]c4cc3F)cc2)cc1	PRKAB2/PRKAA2, with gamma2 subunit (Homo sapiens, UniProt O43741+P54646)	enzyme activity, activator		60 min, 50% above basal activity, with: ATP 50 µM		EC150	0.196 nM
CCc1cccc2c(C(=O)NC3CCN(C(=O)C(C)C)CC3)c[nH]c12	Genome polyprotein, 3C protease (rhinovirus B14, UniProt P03303)	protease activity, SAMDI-MS				Hill slope	0.96
Nc1ncnc2c1ncn2C1OC(COc2ccc(CCC(=O)c3ccccc3C(=O)O)cc2)C(O)C1O (stereo not shown)	2-succinylbenzoate--CoA ligase (menE, Escherichia coli, UniProt P37353)	isothermal titration calorimetry		concentration not given		binding	no binding
OB(O)c1ccc(OCc2ccccc2)nc1F	ampC					ligand efficiency	0.5
Cc1nc(-c2ccc(Cl)cc2)nc2sc3c(=O)n(CCN4CCOCC4)cnc3c12	ache	peripheral site binding		1 µM		propidium displacement	25%
c1cc(Nc2c3c(nc4ccccc24)CCCC3)c2cccnc2c1	ache	enzyme activity, inhibitor, Ellman		100 µM		inhibition	46%
CCN(Cc1ccccc1)C(=O)CCc1nc(CN2CCN(C(=O)Cc3ccc(OC)c(OC)c3)CC2)no1	Sodium channel protein type 10 subunit alpha (Scn10a, Rattus norvegicus, UniProt Q62968)	whole-cell patch clamp	rat DRG neurons	1 µM		V1/2 of activation	-20.4 ± 1.47 mV
COC(=O)N(C)[C@@H](Cc1ccccc1)C(=O)N[C@@H](Cc1ccccc1)C(=O)N[C@@H](Cc1ccccc1)C(=O)N[C@@H](CCCNC(=N)N)C(=O)N[C@@H](CC(C)C)C(=O)N[C@@H](CCCNC(=N)N)C(=O)N[C@@H](CCCNC(=N)N)C(=O)N[C@H](C)C(=O)N[C@@H](CCCNC(=N)N)C(=O)N1CCC[C@H]1C(=O)N[C@@H](CCCCN)C(N)=O	Oprk1	antagonist		with: dynorphin A(1-13)NH2		pA2	8.07
NS(=O)(=O)c1cc(Cl)sc1C(=O)O	ampC					ligand efficiency	0.29
CN1C(=O)C2(Cc3ccc(CC45SSC(CO)(C(=O)N4C)N(C)C5=O)cc3)SSC1(CO)C(=O)N2C (racemic)	Histone acetyltransferase p300, CH1 domain (EP300, Homo sapiens, UniProt Q09472)	SPR		p300 CH1 domain GST fusion, with: DTT 100 µM		dissociation rate constant	0.0038 s⁻¹
CSCC[C@H](NC(=O)[C@@H](NC(=O)[C@H](CC(C)C)NC(=O)[C@@H](NC(=O)[C@H](Cc1c[nH]cn1)NC(=O)CCCCCNC(=O)[C@H](CCCNC(=N)N)NC(=O)[C@H](CCCNC(=N)N)NC(=O)[C@H](CCCNC(=N)N)NC(=O)[C@H](CCC(N)=O)NC(=O)[C@H](CCCNC(=N)N)NC(=O)[C@H](CCCNC(=N)N)NC(=O)[C@H](CCCCN)NC(=O)[C@H](CCCCN)NC(=O)[C@H](CCCNC(=N)N)NC(=O)CNC(=O)[C@@H](N)Cc1ccc(O)cc1)C(C)C)C(C)C)C(=O)N[C@@H](CS)C(=O)N[C@@H](C)C(=O)N[C@H](C(N)=O)[C@@H](C)O	Transitional endoplasmic reticulum ATPase (VCP, Homo sapiens, UniProt P55072)	binding, BLI				koff	0.023 s⁻¹
CC(C)C[C@H](NC(=O)/C=C/c1ccc(OP(=O)(O)O)cc1)C(=O)N1CCC[C@H]1C(=O)NCC#CC(N)=O	Signal transducer and activator of transcription 3, SH2 domain (STAT3, Homo sapiens, UniProt P40763)	fluorescence polarization		concentration not given	reference: Aba analogue	affinity reduction	~2 fold
CC[C@H](C)[C@H](NC(=O)[C@H](CCC(N)=O)NC(=O)[C@H](CC(C)C)NC(=O)[C@@H](NC(=O)CNC(=O)[C@H](Cc1ccc(O)cc1)NC(=O)[C@H](CC(=O)O)NC(=O)[C@@H](NC(=O)[C@H](CO)NC(=O)CNC(=O)[C@H](CC(=O)O)NC(=O)[C@@H](NC(=O)[C@H](CC(N)=O)NC(=O)[C@H](CCCNC(=N)N)NC(=O)[C@H](CC(N)=O)NC(=O)[C@@H](NC(=O)[C@H](C)NC(=O)[C@H](CCC(N)=O)NC(=O)[C@@H](NC(=O)[C@H](CC(N)=O)NC(=O)[C@H](Cc1ccccc1)NC(=O)[C@H](CC(N)=O)NC(=O)[C@H](CO)NC(=O)[C@H](CCC(=O)O)NC(=O)[C@H](Cc1ccccc1)NC(=O)[C@H](CCCCN)NC(=O)[C@H](C)NC(=O)[C@H](C)NC(=O)[C@H](CO)NC(=O)[C@@H](NC(=O)[C@H](Cc1c[nH]c2ccccc12)NC(=O)[C@H](CC(N)=O)NC(=O)CNC(=O)[C@H](CC(C)C)NC(=O)[C@H](CO)NC(=O)[C@H](Cc1ccc(O)cc1)NC(=O)CNC(=O)[C@H](CCCNC(=N)N)NC(=O)[C@H](Cc1ccc(O)cc1)NC(=O)[C@H](CC(N)=O)NC(=O)[C@@H](N)CC(=O)O)C(C)C)[C@@H](C)O)[C@@H](C)O)[C@@H](C)O)[C@@H](C)O)[C@@H](C)CC)C(=O)O	Periplasmic serine endoprotease DegP (degP, Escherichia coli, UniProt P0C0V0, C83S/C95S/N322C)	FRET				maximal assembly rate constant	5.3 ± 0.2 min⁻¹
C[C@]1(COC(=O)c2ccc(O)c(O)c2)[C@H](C(=O)O)N2C(=O)/C(=C/c3ccccn3)[C@H]2S1(=O)=O	Beta-lactamase OXA-48 (OXA-48, Klebsiella pneumoniae, UniProt Q6XEC0)	enzyme activity, inhibitor, absorbance				kinact/KI	340000 M⁻¹ s⁻¹
CN(C)CCCN1c2ccccc2Sc2ccc(C(F)(F)F)cc21	srtA (Staphylococcus aureus, UniProt Q2FV99)	binding, fluorescence quenching				Stern-Volmer constant	5400 L/mol
CCCCCCCCCCCCCCOc1ccc(CP(=O)(O)O)cc1	Autotaxin (ENPP2, Homo sapiens, UniProt Q13822)	inhibitor		10 µM, 2 h, with: FS-3 1 µM	reference: control	remaining activity	30.4%

Repeated from above:
SMILES	target	assay	test system	conditions	how to read	endpoint	value
CC(=O)NC(Cc1ccc(Br)c(Cl)c1)C(=O)N[C@@H](C)C(=O)N1CCC[C@H]1C(=O)N1CCC[C@H]1C(=O)N[C@@H](CCC(=O)O)C(=O)N[C@@H](Cc1c[nH]cn1)C(=O)N[C@@H](CO)C(=O)N[C@H](C(=O)N[C@@H](C)C(N)=O)[C@@H](C)OP(=O)(O)O (stereo partly shown)	Testis-specific serine/threonine-protein kinase 1 (TSSK1B, Homo sapiens, UniProt Q9BXA7)	enzyme activity, inhibitor		10 µM		inhibition	0.18%
CCc1ccc(/C=C/C(=O)c2ccc(N3CCNCC3)cc2)cc1	Beta-secretase 1 (BACE1, Homo sapiens, UniProt P56817)	enzyme activity, inhibitor, fluorescence		10 µM		remaining activity	61%
CC(C)P(=S)(NP(=S)(C(C)C)C(C)C)C(C)C	Alpha-amylase (Bacillus subtilis, UniProt P00691)	binding, FRET		298 K		donor–acceptor distance	2.38 nm
